Measured values of several laboratories.
Several values in a cell are separate wells, animals, samples, runs or records.
Target: Serine/threonine-protein kinase tousled-like 2 (TLK2, Homo sapiens, UniProt Q86UE8)
UniProt Q86UE8, sequence (whole entry, looked up): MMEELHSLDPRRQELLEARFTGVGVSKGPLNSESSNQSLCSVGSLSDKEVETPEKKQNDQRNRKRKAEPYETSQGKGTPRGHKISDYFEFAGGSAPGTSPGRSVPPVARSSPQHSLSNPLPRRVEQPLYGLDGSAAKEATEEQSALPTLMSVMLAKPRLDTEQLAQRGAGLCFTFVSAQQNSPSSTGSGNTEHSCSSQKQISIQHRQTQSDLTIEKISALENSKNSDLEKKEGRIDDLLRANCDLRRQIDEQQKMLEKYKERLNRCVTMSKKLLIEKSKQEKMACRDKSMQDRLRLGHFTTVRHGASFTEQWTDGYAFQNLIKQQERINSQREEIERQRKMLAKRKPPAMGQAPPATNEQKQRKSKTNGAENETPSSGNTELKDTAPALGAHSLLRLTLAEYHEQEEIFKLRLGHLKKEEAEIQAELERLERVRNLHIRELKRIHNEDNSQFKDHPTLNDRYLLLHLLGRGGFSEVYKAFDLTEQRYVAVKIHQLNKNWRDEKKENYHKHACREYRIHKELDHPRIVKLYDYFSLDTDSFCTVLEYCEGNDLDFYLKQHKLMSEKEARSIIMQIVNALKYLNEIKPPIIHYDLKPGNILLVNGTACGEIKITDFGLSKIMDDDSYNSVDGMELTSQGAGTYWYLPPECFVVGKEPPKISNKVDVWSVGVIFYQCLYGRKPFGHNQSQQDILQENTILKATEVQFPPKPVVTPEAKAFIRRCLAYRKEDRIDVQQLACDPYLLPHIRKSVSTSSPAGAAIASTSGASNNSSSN

| Structure (SMILES) | assay | test system | conditions | scale | quantity | value |
| --- | --- | --- | --- | --- | --- | --- |
| N[C@H]1CC[C@H](Nc2nccc(-c3cccnc3Oc3ccc(NC(=O)NC4CC4)c4ccccc34)n2)CC1 | kinobead competition pulldown | HEK293/HCT116 lysate mixture | 10 µM, 1 h, 4 °C | lower = stronger competition | log2 LFQ intensity | 22.7 and 22.8 and 22.9 and 22.6 |
| C=CC(=O)N1CCc2ccc(-n3c(=O)ccc4cnc5ccc(-c6cnn(C)c6)cc5c43)cc21 | KINOMEscan |  | 1 µM | baseline: DMSO control | remaining binding | 100% |
| Cc1ccc(-c2c(/C=C(\C#N)C(=O)NC(C)C)n(CCCO)c3ncnc(N)c23)cc1 | cell-free assay, competition with immobilised ligand |  | 1 µM |  | remaining binding | 82% |
| CNC(=O)C1CCN(c2cc(C)c(F)cc2NC(=O)c2ccc(-c3cc(O)ccc3C)c(C)c2)CC1 | binding, competition with immobilised ligand |  | 1 µM |  | remaining binding | 96% |
| CCn1cc(C(=O)O)c(=O)c2c(N)c(F)c(NC3CCCCC3)cc21 | kinase activity |  | 0.1 µM, with: ATP at Km |  | inhibition | -11.8% |
| COc1cc(Nc2nccc(-c3cnn4nc(OC)ccc34)n2)cc(C(F)(F)F)c1 | binding, competition with immobilised ligand |  | 1 µM |  | remaining binding | 100% |
| CN1CC[C@@H](COc2cnc(C#N)cc2-c2ccn3nc(NC(=O)C4CC4)cc3c2)C1 | enzyme activity, inhibitor |  | 1 µM |  | inhibition | -8% |
| CCN1CCN(Cc2ccc(C(=O)Nc3ccc(C)c(NCc4cnc5[nH]ccc5c4OC)c3)cc2C(F)(F)F)CC1 | binding, competition with immobilised ligand |  | 1 µM |  | remaining binding | 100% |
| CNC(=O)C[C@H](Cc1ccc(C#N)cc1)NC(=O)c1cc(-c2ccc(CN[C@H](C)c3ccc(C)cc3)o2)ccc1Cl | enzyme activity, inhibitor |  | 1 µM |  | activity vs control | 92% |
| Nc1ncc2c(n1)-c1c([nH]c3ccc(C4=CCOCC4)cc13)CCC2 | binding, competition with immobilised ligand |  | 1 µM |  | remaining binding | 100% |
| C=CC(=O)N1CCCC(n2c(=O)c3ncccc3n(Cc3ccc(Oc4ccccc4)cc3)c2=O)C1 (stereo not drawn) | cell-free assay, competition with immobilised ligand |  | 1 µM |  | remaining binding | 100% |
| Cc1ccc(C(=O)Nc2ccc(CN3CCN(C)CC3)c(C(F)(F)F)c2)cc1C#Cc1cnc2cccnn12 | target engagement, NanoBRET | human cells |  |  | upper asymptote | 193 |
| Cc1cnc2nc1Nc1cccc(c1)COC/C=C/COCc1cc(ccc1OCCN1CCOCC1)N2 | binding, competition with immobilised ligand |  | 0.1 µM |  | remaining binding | 93% |
| NC(=O)C[C@H]1CCc2sc3ncnc(O[C@H]4CC[C@H](N5CCOCC5)CC4)c3c21 | enzyme activity, inhibitor |  | 10 µM |  | inhibition | -3% |
| CNC1C[S+]2CC[S+]3CC[S+](C1)[Ru-4]321([N]=C=S)[n]2c3ccc(OC)cc3c3c4c(c5cc(F)c[n+]1c5c32)C(=O)NC4=O (stereo not drawn) | KinomeScan |  | 0.1 µM | baseline: untreated | remaining binding | 95% |

A few entries again:
| Structure (SMILES) | assay | test system | conditions | scale | quantity | value |
| --- | --- | --- | --- | --- | --- | --- |
| CN1CC[C@@H](COc2cnc(C#N)cc2-c2ccn3nc(NC(=O)C4CC4)cc3c2)C1 | enzyme activity, inhibitor |  | 1 µM |  | inhibition | -8% |
| CCN1CCN(Cc2ccc(C(=O)Nc3ccc(C)c(NCc4cnc5[nH]ccc5c4OC)c3)cc2C(F)(F)F)CC1 | binding, competition with immobilised ligand |  | 1 µM |  | remaining binding | 100% |
